Measurements gathered from unrelated publications.
Each numbered part is a random draw from the data of one study; scales do not carry over between parts.
Chain of UniProt P53350 (whole entry, looked up): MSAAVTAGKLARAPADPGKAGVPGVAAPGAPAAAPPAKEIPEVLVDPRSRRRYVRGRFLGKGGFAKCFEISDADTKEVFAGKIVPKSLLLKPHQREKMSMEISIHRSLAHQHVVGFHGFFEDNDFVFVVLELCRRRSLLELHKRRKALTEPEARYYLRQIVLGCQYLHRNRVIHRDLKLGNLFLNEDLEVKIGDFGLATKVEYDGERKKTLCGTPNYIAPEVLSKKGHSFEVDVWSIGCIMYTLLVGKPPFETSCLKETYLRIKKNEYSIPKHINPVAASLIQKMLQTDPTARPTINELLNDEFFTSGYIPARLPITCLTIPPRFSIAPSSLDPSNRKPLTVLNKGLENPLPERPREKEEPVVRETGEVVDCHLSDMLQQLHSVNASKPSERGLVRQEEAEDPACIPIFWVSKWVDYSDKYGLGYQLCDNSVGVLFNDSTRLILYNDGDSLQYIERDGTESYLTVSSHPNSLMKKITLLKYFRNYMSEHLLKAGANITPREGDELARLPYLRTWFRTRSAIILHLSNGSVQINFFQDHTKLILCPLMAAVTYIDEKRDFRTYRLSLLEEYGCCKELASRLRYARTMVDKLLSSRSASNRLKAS
Chain of UniProt Q96J92 (whole entry, looked up): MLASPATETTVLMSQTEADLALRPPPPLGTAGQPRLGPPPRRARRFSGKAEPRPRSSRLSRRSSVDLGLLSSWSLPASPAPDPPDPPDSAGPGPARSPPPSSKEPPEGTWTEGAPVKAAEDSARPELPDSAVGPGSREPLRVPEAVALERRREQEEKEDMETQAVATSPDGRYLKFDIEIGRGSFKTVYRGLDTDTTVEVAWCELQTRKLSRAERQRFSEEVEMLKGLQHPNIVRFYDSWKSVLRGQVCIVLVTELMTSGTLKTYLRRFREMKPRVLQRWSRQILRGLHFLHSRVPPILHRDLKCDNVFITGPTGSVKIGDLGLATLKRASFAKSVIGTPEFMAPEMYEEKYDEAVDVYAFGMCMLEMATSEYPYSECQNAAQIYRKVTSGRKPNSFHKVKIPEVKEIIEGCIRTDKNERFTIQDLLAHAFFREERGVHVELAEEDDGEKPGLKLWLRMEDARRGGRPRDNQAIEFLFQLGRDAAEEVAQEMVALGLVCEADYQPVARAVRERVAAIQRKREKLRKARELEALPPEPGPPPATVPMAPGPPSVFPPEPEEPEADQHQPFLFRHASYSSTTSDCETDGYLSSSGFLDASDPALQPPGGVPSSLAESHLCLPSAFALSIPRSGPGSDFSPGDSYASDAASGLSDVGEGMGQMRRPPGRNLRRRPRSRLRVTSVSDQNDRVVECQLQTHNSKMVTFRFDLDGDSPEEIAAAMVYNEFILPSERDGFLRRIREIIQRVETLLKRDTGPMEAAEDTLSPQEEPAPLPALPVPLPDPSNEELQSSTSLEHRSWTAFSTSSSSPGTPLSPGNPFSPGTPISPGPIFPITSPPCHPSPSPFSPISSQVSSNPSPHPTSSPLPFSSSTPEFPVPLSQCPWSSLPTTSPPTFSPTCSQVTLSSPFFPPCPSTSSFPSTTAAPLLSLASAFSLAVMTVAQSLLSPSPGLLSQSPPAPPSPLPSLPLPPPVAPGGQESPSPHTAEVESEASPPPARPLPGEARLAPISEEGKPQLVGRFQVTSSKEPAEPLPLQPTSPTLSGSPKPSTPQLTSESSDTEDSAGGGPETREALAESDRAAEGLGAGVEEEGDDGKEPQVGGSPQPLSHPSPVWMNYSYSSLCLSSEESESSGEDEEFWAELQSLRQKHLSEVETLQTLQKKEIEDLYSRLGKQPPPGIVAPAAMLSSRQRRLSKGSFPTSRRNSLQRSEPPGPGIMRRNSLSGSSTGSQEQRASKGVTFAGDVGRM
Chain of UniProt Q9BYP7 (whole entry, looked up): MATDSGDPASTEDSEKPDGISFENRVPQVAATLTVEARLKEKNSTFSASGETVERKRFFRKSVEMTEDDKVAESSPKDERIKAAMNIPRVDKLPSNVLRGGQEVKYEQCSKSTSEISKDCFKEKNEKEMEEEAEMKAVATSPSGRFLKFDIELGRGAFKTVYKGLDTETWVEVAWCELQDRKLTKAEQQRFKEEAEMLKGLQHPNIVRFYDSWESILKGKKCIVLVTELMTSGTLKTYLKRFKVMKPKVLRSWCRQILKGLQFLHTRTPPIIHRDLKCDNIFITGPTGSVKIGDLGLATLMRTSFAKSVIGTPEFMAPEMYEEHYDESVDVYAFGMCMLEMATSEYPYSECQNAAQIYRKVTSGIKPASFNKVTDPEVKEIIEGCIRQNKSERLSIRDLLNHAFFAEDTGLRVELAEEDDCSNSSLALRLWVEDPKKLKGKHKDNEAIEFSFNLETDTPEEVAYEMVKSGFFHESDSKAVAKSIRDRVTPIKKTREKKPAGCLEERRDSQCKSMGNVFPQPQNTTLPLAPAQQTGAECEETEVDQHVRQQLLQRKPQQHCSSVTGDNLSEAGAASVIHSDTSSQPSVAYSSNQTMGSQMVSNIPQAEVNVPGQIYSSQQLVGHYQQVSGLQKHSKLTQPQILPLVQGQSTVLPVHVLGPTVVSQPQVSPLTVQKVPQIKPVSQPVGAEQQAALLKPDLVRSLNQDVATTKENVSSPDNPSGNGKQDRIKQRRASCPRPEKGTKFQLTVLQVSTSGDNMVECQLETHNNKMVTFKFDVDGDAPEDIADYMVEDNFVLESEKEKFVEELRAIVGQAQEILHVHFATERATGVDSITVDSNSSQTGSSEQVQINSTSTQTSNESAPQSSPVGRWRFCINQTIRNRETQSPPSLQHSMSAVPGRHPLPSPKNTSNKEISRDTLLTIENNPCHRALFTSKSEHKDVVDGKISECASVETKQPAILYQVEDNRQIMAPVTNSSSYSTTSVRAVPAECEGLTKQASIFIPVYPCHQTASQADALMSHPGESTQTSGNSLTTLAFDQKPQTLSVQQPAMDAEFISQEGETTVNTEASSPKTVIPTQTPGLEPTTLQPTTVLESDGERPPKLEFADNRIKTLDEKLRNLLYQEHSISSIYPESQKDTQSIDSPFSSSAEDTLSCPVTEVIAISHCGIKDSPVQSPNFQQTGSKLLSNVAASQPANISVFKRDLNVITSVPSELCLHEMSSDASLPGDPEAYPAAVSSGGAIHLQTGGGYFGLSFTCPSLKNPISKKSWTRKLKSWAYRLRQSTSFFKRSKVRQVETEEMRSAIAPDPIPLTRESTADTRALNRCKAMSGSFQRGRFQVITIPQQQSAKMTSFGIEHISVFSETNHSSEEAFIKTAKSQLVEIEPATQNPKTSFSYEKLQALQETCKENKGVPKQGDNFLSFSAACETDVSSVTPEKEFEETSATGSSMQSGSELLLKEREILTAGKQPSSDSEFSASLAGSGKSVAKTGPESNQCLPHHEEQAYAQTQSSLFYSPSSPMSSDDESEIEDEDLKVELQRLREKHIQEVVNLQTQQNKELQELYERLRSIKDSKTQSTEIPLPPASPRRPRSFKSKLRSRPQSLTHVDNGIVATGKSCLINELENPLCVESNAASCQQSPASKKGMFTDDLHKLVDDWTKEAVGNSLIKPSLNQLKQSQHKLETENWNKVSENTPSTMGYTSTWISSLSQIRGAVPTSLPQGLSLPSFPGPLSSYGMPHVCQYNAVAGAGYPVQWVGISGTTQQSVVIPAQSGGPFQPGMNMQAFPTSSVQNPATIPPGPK

Study 1
Target: Casein kinase II subunit alpha' (CSNK2A2, Homo sapiens, UniProt P19784)
Chain of UniProt P19784 (whole entry, looked up): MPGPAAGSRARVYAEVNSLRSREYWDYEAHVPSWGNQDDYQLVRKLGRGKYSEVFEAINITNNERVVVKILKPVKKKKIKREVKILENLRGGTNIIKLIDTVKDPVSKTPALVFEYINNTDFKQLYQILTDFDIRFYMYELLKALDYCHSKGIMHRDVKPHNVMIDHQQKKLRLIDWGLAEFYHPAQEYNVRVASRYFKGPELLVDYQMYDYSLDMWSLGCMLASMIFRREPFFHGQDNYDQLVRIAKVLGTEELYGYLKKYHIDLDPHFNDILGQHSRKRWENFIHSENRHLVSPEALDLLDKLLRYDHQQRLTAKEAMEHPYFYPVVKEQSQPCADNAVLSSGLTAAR
Observed: enzyme activity
Mode: inhibitor
Tested at: 0.5 µM
Reference: control
With `O=C1Nc2ccccc2/C1=C\c1c(Cl)[nH]c2ccccc12` the remaining activity was 94.3%.
`O=C(O)/C=C/c1cc(Br)c(Br)c(Br)c1Br` has a remaining activity of 17%.
`O=C1NC(=O)/C(=C/c2ccc3c(c2)OC(F)(F)O3)S1` gave a remaining activity of 29.9%.
With `CCCCc1c(-c2ccc(O)cc2)[nH]c2nccnc12` the remaining activity was 94.7%.
The remaining activity of `C[C@@H](N)[C@H]1CC[C@H](C(=O)Nc2ccncc2)CC1` is reported as 88%.
With `O=C1NC(=O)c2c1c1c3ccccc3[nH]c1c1[nH]c3cc(Br)ccc3c21` the remaining activity was 93.2%.
`COc1cccc(-c2cc(=O)c3ccccc3o2)c1N` gave a remaining activity of 97.7%.
With `O=C1c2ccccc2-c2nc3nnnn3nc21` the remaining activity was 76.2%.
The remaining activity of `O=C1Cc2c([nH]c3ccc(Br)cc23)-c2ccccc2N1` is reported as 74.6%.
For `Cc1cc(Nc2cc(N3CCN(C)CC3)nc(Sc3ccc(NC(=O)C4CC4)cc3)n2)[nH]n1`, the remaining activity was 120%.
`N#C/C(=C(/N)SC1C=CC=CC1)c1cccc(C(O)c2ccncc2)c1` (stereo not shown) has a remaining activity of 110%.
The remaining activity of `COc1cc2c(N3CCN(C(=O)Nc4ccc(OC(C)C)cc4)CC3)ncnc2cc1OCCCN1CCCCC1` is reported as 92.9%.
The remaining activity of `CC(C)N(CCC(=O)c1ccc2ccccc2c1)Cc1ccccc1` is reported as 95.4%.
`COc1ccc(COc2ccc(Cc3cnc(N)nc3N)cc2OC)cc1` gave a remaining activity of 97.4%.
With `CCN(CC)CCCCN1c2ccccc2Oc2ccc(Cl)cc21` the remaining activity was 94.6%.
For `NC(=O)c1cccc(-c2cc(Nc3ccc(OC(F)(F)F)cc3)ncn2)c1`, the remaining activity was 92.7%.
With `CC(C)n1cnc2c(Nc3cccc(Cl)c3)nc(NCCO)nc21` the remaining activity was 91.8%.
With `c1ccc(-c2n[nH]c3c2oc2ccccc23)cc1` the remaining activity was 85.6%.
For `O=Nc1c(-c2c(O)[nH]c3ccccc23)[nH]c2ccccc12`, the remaining activity was 75%.
For `COc1ccc2c(c1)c(C1=C(c3c[nH]c4ccccc34)C(=O)NC1=O)cn2CCCN(C)C`, the remaining activity was 99.3%.
The remaining activity of `N#Cc1cnc2cnc(NCc3cccnc3)cc2c1Nc1ccc(F)c(Cl)c1` is reported as 75.2%.
`Clc1ccc(Nc2nnc(Cc3ccncc3)c3ccccc23)cc1` has a remaining activity of 106%.
`Oc1cccc(-c2nc(N3CCOCC3)c3oc4ncccc4c3n2)c1` has a remaining activity of 56.2%.
`FC(F)(F)c1ccc(/C=C/c2nc(COc3ccc(CCCCn4ccnn4)cc3)co2)cc1` gave a remaining activity of 102%.
With `CCCCc1c(-c2ccc(OC)cc2)[nH]c2nccnc12` the remaining activity was 94.1%.

Study 2
Compound: Cc1ccc(-c2cnc([C@@]3(O)CC[C@H](C(=O)O)C(C)(C)C3)s2)cc1Nc1cccc(C(F)(F)F)n1
Observed: binding
Method: competition with immobilised ligand
Tested at: 1 µM
For WNK3 (Homo sapiens, UniProt Q9BYP7): remaining binding read 0%.
The remaining binding was 31.8% (WNK4 (Homo sapiens, UniProt Q96J92)).
It gave 20.3% for remaining binding (PLK1 (Homo sapiens, UniProt P53350)).

Study 3
Target: Diamine acetyltransferase 1 (Homo sapiens, UniProt P21673)
Mode: inhibitor
Tested at: 10 µM
Reference: control
Target sequence (P21673 1-171): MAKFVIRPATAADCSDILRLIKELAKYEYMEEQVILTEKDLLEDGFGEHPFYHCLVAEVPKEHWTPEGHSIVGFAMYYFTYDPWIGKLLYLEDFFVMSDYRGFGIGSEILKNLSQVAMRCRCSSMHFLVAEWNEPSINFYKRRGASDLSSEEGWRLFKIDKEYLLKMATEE
The remaining activity of `O=c1cc(-c2ccccc2)oc2ccccc12` is reported as 83.1%.
`COc1c2ccoc2c(OC[C@H]2OC2(C)C)c2oc(=O)ccc12` gave a remaining activity of 86.8%.
`C[C@@H](O)[C@H](N)C(=O)O` has a remaining activity of 85%.
`COC(=O)/C=C/c1ccccc1` gave a remaining activity of 84.9%.
For `O=C(CCc1ccccc1)C[C@@H](O)/C=C/c1ccccc1`, the remaining activity was 101%.
For `C=CCSSSCC=C`, the remaining activity was 98.4%.
`O=c1ccc2ccc(O)c(O)c2o1` gave a remaining activity of 100%.
For `CC1=CC(=O)CC(C)(C)C1(O)/C=C/C(C)=C\C(=O)O` (racemic), the remaining activity was 85%.
With `COc1ccc2c(c1OC)O[C@H]1c3ccc(O)cc3OC[C@@H]21` the remaining activity was 102%.
`C=C[C@]1(C)CC[C@@H](C(=C)C)C[C@H]1C(=C)C` gave a remaining activity of 96%.

Study 4
Method: PRP chromatography
Notes: linear fit, 1 mL
With `CC(C)C[C@@H]1NC(=O)[C@H](CC(C)C)NC(=O)[C@@H](C(C)C)NC(=O)[C@@H](C)NC(=O)[C@H](C(C)C)NC(=O)[C@H](Cc2cscn2)NC(=O)[C@H](C)NC1=O` the logD 1,9-decadiene/water was -2.53 log units.
`CC(C)C[C@@H]1NC(=O)[C@@H](C)NC(=O)[C@@H](CC(C)C)NC(=O)[C@H](C)NC(=O)[C@H](C(C)C)NC(=O)[C@H](CC(C)C)NC(=O)[C@@H](CC(C)C)NC1=O` gave a logD 1,9-decadiene/water of -0.77 log units.
`CC(C)C[C@@H]1NC(=O)[C@H](CC(C)C)NC(=O)[C@@H](C(C)C)NC(=O)[C@H](CC(C)C)NC(=O)[C@@H](Cc2cscn2)NC(=O)[C@H](CCC(=O)N2CCCC2)NC(=O)[C@H](C)NC1=O` has a logD 1,9-decadiene/water of -3 log units.
`CC(C)C[C@@H]1NC(=O)[C@H](Cc2cscn2)NC(=O)[C@H](CCC(=O)N2CCCC2)NC(=O)[C@H](C)NC(=O)[C@@H](CCC(=O)N2CCCC2)NC(=O)[C@H](CC(C)C)NC(=O)[C@@H](CC(C)C)NC1=O` has a logD 1,9-decadiene/water of -4.42 log units.
For `CC(C)C[C@@H]1NC(=O)[C@H](C)NC(=O)[C@H](Cc2cscn2)NC(=O)[C@H](C)NC(=O)[C@@H](CCC(=O)N2CCCC2)NC(=O)[C@H](CC(C)C)NC(=O)[C@@H](CC(C)C)NC1=O`, the logD 1,9-decadiene/water was -2.72 log units.
The logD 1,9-decadiene/water of `CC(C)C[C@@H]1NC(=O)[C@H](C)NC(=O)[C@H](CC(C)C)NC(=O)[C@@H](CC(C)C)NC(=O)[C@H](CC(C)C)NC(=O)[C@@H](C)NC(=O)[C@@H](CC(C)C)NC1=O` is reported as -0.292 log units.

Study 5
Organism: Sarcocystis neurona
Observed: parasite growth
Tested at: 10 µM
`CN(CCOc1ccc(CC2SC(=O)NC2=O)cc1)c1ccccn1` (stereo not shown) gave an inhibition of 11.1%.
`Cc1ccc(-c2cc(C(F)(F)F)nn2-c2ccc(S(N)(=O)=O)cc2)cc1` has an inhibition of -30.7%.
The inhibition of `CCCCC(=O)O[C@H]1CC[C@H]2[C@@H]3CCc4cc(O)ccc4[C@H]3CC[C@]12C` is reported as -26.8%.
With `CCN1CC(CCN2CCOCC2)C(c2ccccc2)(c2ccccc2)C1=O.Cl` (stereo not shown) the inhibition was -26.7%.
`NS(=O)(=O)c1cc(C2(O)NC(=O)c3ccccc32)ccc1Cl` (stereo not shown) gave an inhibition of -20.8%.
For `COc1ccc(-c2cc(=O)c3c(OC)c(OC)c(OC)c(OC)c3o2)cc1OC`, the inhibition was 16.1%.
`C[N+]1(C)CCC(OC(=O)C(O)(c2ccccc2)C2CCCC2)C1` (stereo not shown) has an inhibition of -36.1%.
`CC(C)c1nc(CN(C)C(=O)N[C@H](C(=O)N[C@@H](Cc2ccccc2)C[C@H](O)[C@H](Cc2ccccc2)NC(=O)OCc2cncs2)C(C)C)cs1` gave an inhibition of 29.9%.
